Measurements pooled from the literature.
Numbers after ± are the reported error.
Cell line: HEK293

With Cc1[nH][n+]([Pt-2]([Cl])([n+]2[nH]c(C)c(CSCc3ccccc3)c2C)[n+]2[nH]c(C)c(CSCc3ccccc3)c2C)c(C)c1CSCc1ccccc1.Cl the IC50 was 460 ± 10 nM (cytotoxicity, 7-AAD flow cytometry; 24 h).
With CC(C)Cc1ccc(C(C)C(=O)N/N=C/c2ccc(OCC(=O)N/N=C/c3cccc(O)c3)cc2)cc1 (stereo not shown) the viability was 49.5% (MTT; 100 µM, 48 h).
For NCC1OC(OC2C(N)CC(N)C(OC3OC(CO)C(O)C(N)C3O)C2OCCCCn2cc(CNc3nc(NCc4cn(CCCCOC5C(OC6OC(CN)C(O)CC6N)C(N)CC(N)C5OC5OC(CO)C(O)C(N)C5O)nn4)nc(NCc4cn(CCCCOC5C(OC6OC(CN)C(O)CC6N)C(N)CC(N)C5OC5OC(CO)C(O)C(N)C5O)nn4)n3)nn2)C(N)CC1O (stereo not shown), the viability was 88% (cell growth or viability, resazurin; 27 µM, 48 h).
The CC50 of C[C@@H](Nc1c(-c2c(F)cc(C#N)cc2F)c(Cl)nc2ncnn12)C(C)(C)C is reported as 29.1 nM (cell growth or viability, ATP luminescence; 48 h).
For COC(=O)[C@H](CSSC[C@H](NC(=O)[C@H](Cc1ccccc1)NC(=O)[C@H](Cc1ccccc1)NC(=O)OC(C)(C)C)C(=O)OC)NC(=O)[C@H](Cc1ccccc1)NC(=O)[C@H](Cc1ccccc1)NC(=O)OC(C)(C)C, the cytotoxic concentration was 100 µM (MTT; 36 h).
For NCC1OC(OC2C(N)CC(N)C(OC3OC(CO)C(O)C(N)C3O)C2OCCCCCCCCn2cc(CNc3nc(NCc4cn(CCCCCCCCOC5C(OC6OC(CN)C(O)CC6N)C(N)CC(N)C5OC5OC(CO)C(O)C(N)C5O)nn4)nc(NCc4cn(CCCCCCCCOC5C(OC6OC(CN)C(O)CC6N)C(N)CC(N)C5OC5OC(CO)C(O)C(N)C5O)nn4)n3)nn2)C(N)CC1O (stereo not shown), the CC50 was 116000 nM (cell growth or viability, resazurin; 48 h).
The IC50 of Cc1[nH][n+]([Pd-2]([Br])([Br])[n+]2[nH]c(C)c(CSCc3ccccc3)c2C)c(C)c1CSCc1ccccc1 is reported as 980 ± 20 nM (cytotoxicity, 7-AAD flow cytometry; 24 h).
With CC(C)Cc1ccc(C(C)C(=O)N/N=C/c2ccc(OCC(=O)N/N=C/c3c(O)ccc4ccccc34)cc2)cc1 (stereo not shown) the viability was 35.6% (MTT; 40 µM, 48 h).
Under viability, O=C(CN1CCC(NC(=O)CSc2ccc(Cl)cc2)CC1)Nc1ccccc1 is recorded as “not toxic” (MTT; concentration not given, 18 h, all tested concentrations).
CC(C)Cc1ccc(C(C)C(=O)N/N=C/c2ccc(OCC(=O)N/N=C/c3ccc([N+](=O)[O-])cc3)cc2)cc1 (stereo not shown) gave a viability of 38.3% (MTT; 150 µM, 48 h).
For C[C@H](Nc1c(-c2c(F)cc(OCCCN)cc2F)c(Cl)nc2ncnn12)C(F)(F)F, the CC50 was 29 nM (cell growth or viability, ATP luminescence; 48 h).
With COc1cccc(/C=N/NC(=O)COc2ccc(/C=N/NC(=O)C(C)c3ccc(CC(C)C)cc3)cc2)c1O (stereo not shown) the viability was 43.6% (MTT; 100 µM, 48 h).
Under “time to phosphate metabolite detection”, CCCCCCCOc1ccc(CC[C@](N)(CO)COP(=O)(O)O)cc1C(F)(F)F is recorded as 6 h (supernatant; 100 nM).
With NC[C@H]1O[C@H](O[C@H]2[C@H](OCCCCCCCCCCCCn3cc(CNc4nc(NCc5cn(CCCCCCCCCCCCO[C@@H]6[C@@H](O)[C@H](N)C[C@H](N)[C@H]6O[C@H]6O[C@H](CN)[C@@H](O)C[C@H]6N)nn5)nc(NCc5cn(CCCCCCCCCCCCO[C@@H]6[C@@H](O)[C@H](N)C[C@H](N)[C@H]6O[C@H]6O[C@H](CN)[C@@H](O)C[C@H]6N)nn5)n4)nn3)[C@@H](O)[C@H](N)C[C@@H]2N)[C@H](N)C[C@@H]1O the viability was 1.77% (cell growth or viability, resazurin; 27 µM, 48 h).
The CC50 of C[C@@H](Nc1c(-c2c(F)cc(C#CCCO)cc2F)c(Cl)nc2ncnn12)C(C)(C)C is reported as 35.9 nM (cell growth or viability, ATP luminescence; 48 h).
CC(C)Cc1ccc(C(C)C(=O)NN=Cc2ccc(OCC(=O)NN=Cc3cccc([N+](=O)[O-])c3)cc2)cc1 (stereo not shown) has a viability of 96% (MTT; 80 µM, 48 h).
O=C([O-])CN1CCN(CC(=O)[O-])CCN(C(CCC(=O)NC(Cc2c[nH]c3ccc(O)cc23)C(=O)NCCc2c[nH]c3ccc(O)cc23)C(=O)O)CCN(CC(=O)[O-])CC1.[Gd+3] (stereo not shown) — result for cytotoxicity: “not toxic” (MTT; up to 5 mM, 16 h, 37 °C).
CC(C)[C@@H](C)Nc1c(-c2c(F)cc(OCCCN(C)C)cc2F)c(Cl)nc2ncnn12 gave a CC50 of 15.2 nM (cell growth or viability, ATP luminescence; 48 h).
O=C1CCc2ccc(NS(=O)(=O)c3cccc(Oc4ccccc4)c3)cc2N1 — result for cytotoxicity: “not toxic” (up to 1 µM).
C[C@H](Nc1c(-c2c(F)cc(OCCCN(C)C)cc2F)c(Cl)nc2ncnn12)C(C)(C)C has a CC50 of 36.9 nM (cell growth or viability, ATP luminescence; 48 h).
For O=C(Cc1ccc(OCc2ccccc2)cc1)NC1(C(=O)O)CCN(C(=O)c2ccc(-c3cccc(Cl)c3)cc2)CC1, the IC50 was greater than 100000 nM (cytotoxicity; 3 days).
C[C@@H](Nc1c(-c2c(F)cc(OCCCN(C)C)cc2F)c(Cl)nc2ncnn12)C1CC1 has a CC50 of 37.1 nM (cell growth or viability, ATP luminescence; 48 h).
CC(C)(C)OC(=O)N[C@@H](Cc1ccccc1)C(=O)N[C@@H](Cc1ccccc1)C(=O)NCCNC(=O)[C@H](Cc1ccccc1)NC(=O)[C@H](Cc1ccccc1)NC(=O)OC(C)(C)C — result for “highest non-toxic concentration”: no more than 75 µM (MTT; 24 h, 37 °C, self-assembled structures).
CN(C)CCCOc1cc(F)c(-c2c(Cl)nc3ncnn3c2NCC2(C)N=N2)c(F)c1 gave a CC50 of 19.1 nM (cell growth or viability, ATP luminescence; 48 h).
COc1ccc(C(=O)/C=C(\O)C(F)(F)C(F)(F)F)c(O)c1 has an EC50 of roughly 10000 nM (cell viability; 24 h, 10% FBS).

Some of these lines once more:
CC(C)[C@@H](C)Nc1c(-c2c(F)cc(OCCCN(C)C)cc2F)c(Cl)nc2ncnn12 gave a CC50 of 15.2 nM (cell growth or viability, ATP luminescence; 48 h).
O=C1CCc2ccc(NS(=O)(=O)c3cccc(Oc4ccccc4)c3)cc2N1 — result for cytotoxicity: “not toxic” (up to 1 µM).
C[C@H](Nc1c(-c2c(F)cc(OCCCN(C)C)cc2F)c(Cl)nc2ncnn12)C(C)(C)C has a CC50 of 36.9 nM (cell growth or viability, ATP luminescence; 48 h).
